Assay results pooled from the literature.
Each line is one published result; not all experiments were run side by side. ± marks the error that the study gave.
MDM2: E3 ubiquitin-protein ligase Mdm2 (MDM2, Homo sapiens, UniProt Q00987)
Chain of UniProt Q00987 (whole entry, looked up): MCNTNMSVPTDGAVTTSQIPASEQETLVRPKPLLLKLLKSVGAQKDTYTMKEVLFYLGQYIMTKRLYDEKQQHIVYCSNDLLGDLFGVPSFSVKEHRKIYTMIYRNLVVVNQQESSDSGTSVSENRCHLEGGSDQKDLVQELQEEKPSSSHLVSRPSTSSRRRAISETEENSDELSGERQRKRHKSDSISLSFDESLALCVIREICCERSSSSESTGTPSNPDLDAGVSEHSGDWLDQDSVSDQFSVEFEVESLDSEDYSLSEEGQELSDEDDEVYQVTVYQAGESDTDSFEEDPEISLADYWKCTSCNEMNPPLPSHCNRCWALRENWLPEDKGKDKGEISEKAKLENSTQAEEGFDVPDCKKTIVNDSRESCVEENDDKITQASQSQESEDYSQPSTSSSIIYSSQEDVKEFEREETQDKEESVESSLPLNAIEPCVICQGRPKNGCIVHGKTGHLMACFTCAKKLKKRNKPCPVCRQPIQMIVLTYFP
MDM2 N-terminal domain 17-125: E3 ubiquitin-protein ligase Mdm2, N-terminal domain 17-125 (MDM2, Homo sapiens, UniProt Q00987)
MDM2 with p53: E3 ubiquitin-protein ligase Mdm2, with p53 (MDM2, Homo sapiens, UniProt Q00987)

Compound | target | assay | setting | measurement | result
COc1cc(C(=O)NCCOCCOCCOCCNC(=O)c2ccc(F)nc2)ccc1NC(=O)C1NC(CC(C)(C)C)C(C#N)(c2ccc(Cl)cc2F)C1c1cccc(Cl)c1F (centres unmarked) | MDM2 | ligand displacement, FP |  | IC50 | 119 nM
CC(=O)N(CC(=O)N(C)CC(=O)N(CC(=O)N(C)CC(=O)N(CCC(C)(C)C)CC(=O)N1CCNCC1)Cc1c[nH]c2cc(Cl)ccc12)Cc1ccccc1 | MDM2 N-terminal domain 17-125 | isothermal titration calorimetry | 25 °C | Kd | no binding
CC(C)[C@@H](CS(=O)(=O)C(C)C)N1C(=O)[C@@](C)(CC(=O)NCCCNC(=O)c2ccc(F)nc2)C[C@H](c2cccc(Cl)c2)[C@H]1c1ccc(Cl)cc1 | MDM2 | ligand displacement, FP |  | IC50 | 37.9 nM
Nc1ncnc2c1ncn2[C@@H]1O[C@H](COP(=O)(O)OP(=O)(O)OP(=O)(O)O)[C@@H](O)[C@H]1O | E3 ubiquitin-protein ligase Mdm2, RING domain 400-491 (MDM2, Homo sapiens, UniProt Q00987) | isothermal titration calorimetry | 100 nM protein | Kd | ~4000 nM
CC(=O)N[C@H](C(=O)N[C@@H](CO)C(=O)N[C@@H](Cc1ccccc1)C(=O)N[C@]1(C)CCCCCCCCCCC[C@@](C)(C(N)=O)NC(=O)[C@H](CC(C)C)NC(=O)[C@H](CC(C)C)NC(=O)[C@H](C)NC(=O)[C@H](Cc2c[nH]c3ccccc23)NC(=O)[C@H](Cc2ccc(O)cc2)NC(=O)[C@H](CCC(=O)O)NC1=O)[C@@H](C)O | MDM2 | cell-free assay, FP | pH 7.4 | Kd | 209 nM
CC(C)(C)c1ccc2[c](c1)[Au-]1([Cl])[c]3cc(C(C)(C)C)ccc3-c3cncc-2[n+]31 | MDM2 N-terminal domain 17-125 | MDM2-p53 binding, inhibitor, fluorescence polarization | pH 7.4 | IC50 | 48800 ± 3100 nM
CC(=O)N[C@@H](CC(C)C)C(=O)N[C@H](C(=O)N[C@@H](Cc1ccccc1)C(=O)N[C@@H]1CSCc2ccc(cn2)-c2ccc(nc2)CSC[C@@H](C(=O)N[C@@H](CO)C(=O)NCCCNCCCCNCCCN)NC(=O)[C@H](CC(C)C)NC(=O)[C@H](CCC(N)=O)NC(=O)[C@H](C)NC(=O)[C@H](Cc2c[nH]c3ccccc23)NC(=O)[C@H](Cc2ccc(O)cc2)NC(=O)[C@H](Cc2c[nH]cn2)NC1=O)[C@@H](C)O | MDM2 with p53 | binding, inhibitor, ELISA |  | IC50 | 18 ± 2 nM
O=C(c1ccc(F)cc1)N(Cc1cccc(Cl)c1)Cc1ccco1 | MDM2 with p53 | inhibitor |  | IC50 | 730 ± 104 nM
CC(C)C[C@H](NC(=O)[C@H](CC(=O)O)NC(=O)[C@H](CO)NC(=O)[C@H](Cc1ccccc1)NC(=O)[C@@H](NC(=O)[C@H](CCC(=O)O)NC(=O)CNC(=O)[C@@H](N)CO)[C@@H](C)O)C(=O)N[C@@H](Cc1c[nH]c2ccccc12)C(=O)N[C@@H](CCCCN)C(=O)N[C@@H](CC(C)C)C(=O)N[C@@H](CC(C)C)C(=O)N1CCC[C@H]1C(=O)N[C@@H](CCC(=O)O)C(=O)N[C@@H](CC(N)=O)C(=O)O | E3 ubiquitin-protein ligase Mdm2, p53-binding domain (MDM2, Homo sapiens, UniProt Q00987) | p53 binding, inhibitor, ELISA competition | with: HDM2 4 nM | IC50 | 4100 nM
CC(=O)N[C@@H](CC(C)C)C(=O)N[C@H](C(=O)N[C@@H](Cc1ccccc1)C(=O)N[C@]1(C)CCCCCCCCCCC[C@@](C)(C(=O)N[C@@H](CO)C(=O)N[C@@H](C)C(=O)N[C@@H](C)C(N)=O)NC(=O)[C@H](CC2CCC2)NC(=O)[C@H](CCC(N)=O)NC(=O)[C@H](C)NC(=O)[C@H](Cc2c[nH]c3ccccc23)NC(=O)[C@H](Cc2ccc(O)cc2)NC(=O)[C@H](CCC(=O)O)NC1=O)[C@@H](C)O | MDM2 | cell-free assay, FP | pH 7.4 | Kd | 113 nM
Cc1cccc(OCC(=O)N(Cc2ccco2)Cc2ccccc2F)c1C | MDM2 with p53 | inhibitor |  | IC50 | 870 ± 160 nM
